Published values pooled from the literature.
Each line is one published result; not all experiments were run side by side. Numbers after ± are the reported error.

| Structure (SMILES) | assay | system | conditions | scale | endpoint | result |
| --- | --- | --- | --- | --- | --- | --- |
| NC12CNCCNCC(NCc3ccc(CNC(=O)CCCC(=O)NCc4ccc(-c5nncnn5)cc4)cc3)(CNCCNC1)CNCCNC2.[64Cu+2] | OLINDA dosimetry | osteogenic cells | pretargeting, 120-h interval | – | mean absorbed dose | 0.0719 rad/mCi |
| Cc1[nH]c(/C=C2\C(=O)Nc3ccc(F)cc32)c(C)c1NC(=O)CCN1CCN(C)CC1 | – | dog plasma | 1.00 ng/mL, 24 h in injector after processing, 4 °C | – | accuracy deviation | 0.18% |
| COC(=O)C(c1ccccc1Cl)N1CCC(SCC(=O)c2cccc(OC)c2)C(=CC(=O)O)C1 (mixture of isomers) | HPLC-MS/MS | feline EDTA plasma | 100 ng/mL, 72 h, 4 °C, storage stability | – | deviation from nominal | 2% |
| CC(=O)N[C@H](CCNC(=O)c1cc(NC(=O)c2cc(NC(=O)c3cc(NC(=O)c4nccn4C)cn3C)cn2C)cn1C)C(=O)Nc1cn(C)c(C(=O)Nc2cc(C(=O)Nc3cc(C(=O)Nc4cc(C(=O)NCCCN(C)CCCN[14C](=O)c5cccc([14C](=O)O)c5)n(C)c4)n(C)c3)n(C)c2)n1 | – | BALB/c male mouse | intraperitoneal, 15 nmol per animal, 24 h | – | kidney concentration | 0.23 mg/kg |
| CC(C)(C)NCC(SS(=O)(=O)O)c1ccccc1 (stereo not drawn) | – | mouse hepatocytes | unit not given | relative to: hepatocyte over total microsomal clearance | hepatocyte over microsomal clearance | > 20 |
| N=C(N)NCCC[C@@H]1NC(=O)[C@H](Cc2c[nH]c3ccccc23)NC(=O)[C@@H](CC2CCCCC2)NC(=O)[C@@H]2CCCN2C(=O)[C@@H](NC(=O)CCc2ccccc2)CCCNC1=O | – | C57BL/6J mice, brain | intravenous, 1 mg/kg, two-compartment model | – | distribution rate constant k12 | 19.8 h⁻¹ |
| O=C(Nc1ccc(N2C(=O)c3cccc([18F])c3C2=O)c(Cl)c1)c1ccccn1 | – | Sprague-Dawley rat, arterial plasma | intravenous, 0.08333 h | – | metabolized fraction | ~90% |
| Oc1cccc(-c2cccc(O)n2)n1.[Cl-].[Cl-].[Ru+2].c1cnc2c(c1)ccc1cccnc12.c1cnc2c(c1)ccc1cccnc12 | shake flask | octanol/phosphate buffer | pH 6.00 | – | logD | 1 |
| Cc1ccc(OCC(=O)O)cc1 | – | Sprague-Dawley rat Crl:CD(SD), female, plasma | oral, 30 mg/kg/day of parent drug, day 90, 90-day repeated dosing | – | Tmax | 3 h |
| CC1=CC(C)=[N+]2C1=Cc1ccc(CCC(=O)N3CCN(C(=O)c4cc(Cc5n[nH]c(=O)c6ccccc56)ccc4F)CC3)n1[B-]2(F)F | ex vivo imaging | athymic nude NU/J mice, U87 or U-251 xenograft, brain | intravenous, 2.5 mg/kg, 90 min | – | mean fluorescence | 0.13 AU/pixel |
| N[C@@H](COc1ccccc1C(F)(F)F)c1ccccc1 | – | male Sprague-Dawley rat | oral, 25 mg/kg | – | clearance | 258 ± 3.33 mL/min/kg |
| CC(C)c1cnc(-c2cc(Cl)ccc2F)cc1Nc1ccncc1C(=O)NC(CO)CO | – | patients, phase I monotherapy | oral, dose not given, grade 3 | – | patients with AST increase | 0% |
| CC[C@H](C)[C@H](NC(=O)[C@H](CC(C)C)NC(=O)[C@H](Cc1c[nH]c2ccccc12)NC(=O)[C@H](C)NC(=O)[C@@H](NC(=O)[C@H](Cc1ccccc1)NC(=O)[C@H](CC(=O)O)NC(=O)[C@H](CCCNC(=N)N)NC(=O)[C@H](C)NC(=O)[C@H](C)NC(=O)[C@H](CC(C)C)NC(=O)[C@H](C)NC(=O)[C@H](CC(=O)O)NC(=O)[C@H](CC(C)C)NC(=O)[C@@H](NC(=O)[C@@H](NC(=O)[C@H](C)NC(=O)[C@H](CC(C)C)NC(=O)[C@H](CCC(=O)O)NC(=O)[C@H](CO)NC(=O)[C@H](CO)NC(=O)[C@H](Cc1ccccc1)NC(=O)[C@@H](NC(=O)CNC(=O)[C@H](CCC(=O)O)NC(=O)CNC(=O)[C@@H](N)Cc1cnc[nH]1)[C@@H](C)O)[C@@H](C)O)[C@@H](C)CC)[C@@H](C)CC)C(=O)N[C@@H](C)C(=O)N[C@H](C(=O)N[C@@H](CCCCN)C(=O)N[C@H](C(=O)N[C@H](C(=O)N[C@@H](CC(=O)O)C(=O)N[C@@H](CCCCN)C(=O)N[C@@H](CCCCN)C(=O)N[C@@H](CCCCN)C(=O)N[C@@H](CCCCN)C(=O)N[C@@H](CCCCN)C(=O)N[C@@H](CCCCN)C(N)=O)[C@@H](C)O)[C@@H](C)CC)[C@@H](C)O | – | healthy human subjects, plasma | intravenous infusion, 1 mg, 15 min infusion | – | terminal half-life | 10.4 h |
| N=C(N)NCCC[C@@H]1NC(=O)[C@H](CCCNC(=N)N)NC(=O)[C@H](CCCNC(=N)N)NC(=O)[C@H](CCCNC(=N)N)NC(=O)[C@H](Cc2c[nH]c3ccccc23)NC(=O)[C@H](CCCNC(=N)N)NC(=O)[C@H](CCCNC(=N)N)NC(=O)[C@@H](N)CSSC[C@@H](C(N)=O)NC1=O | HPLC | PBS | concentration not given, pH 7.4, room temperature, together with: GSH 4 mM | – | time to near-complete reduction | ≤ 1 min |
| NCCCC(=O)OCC(=O)c1ccc(O)c(F)c1F.O=C(O)C(F)(F)F | photolysis, item: disappearance of compound | aqueous HEPES buffer with LiClO4 | pH 7.3 | – | quantum yield | 0.11 |
| C#CCOc1ccc(/C=C2\SC(=O)N(CC(=O)NCc3ccccc3)C2=O)cc1 | inverse Kirkwood-Buff integrals | binary solvent mixture | concentration not given, 298.15 K, mole fraction x1 0.60 | – | correlation volume | 4490 cm³/mol |
| CC(C)[C@H](NC(=O)[C@@H]1CCCN1C(=O)[C@H](CCCNC(=N)N)NC(=O)[C@H](CS)NC(=O)[C@H](Cc1c[nH]c2ccccc12)NC(=O)[C@H](CCCNC(=N)N)NC(=O)[C@@H](Cc1ccccc1)NC(=O)[C@H](Cc1c[nH]cn1)NC(=O)[C@H](CCC(=O)O)NC(=O)[C@H](CS)NC(=O)[C@H](CS)NC(=O)CNC(=O)[C@@H]1CC(=O)N[C@@H](CCCNC(=N)N)C(=O)NCC(=O)N[C@@H](CC(=O)O)C(=O)N[C@H](Cc2ccc(O)cc2)C(=O)N1)C(N)=O [technetium-99m labelled] | – | C57 mouse, female, B16/F1 melanoma, lung | intravenous, 0.037 MBq, 2 h | – | tissue uptake | 1.67 ± 0.71 %ID/g |
| COc1cc(C)c(Cc2ccc(O)cc2)cc1[C@@H]1S[C@H](CO)[C@@H](O)[C@H](O)[C@H]1O | – | Japanese T2DM patients, urine | 2.5 mg luseogliflozin, day 1, once daily | relative to: dose | urinary excretion 0-24 h | 6.72 ± 0.749% |
| CC(C)[C@H](NC(=O)CNC(=O)[C@H](CCC(N)=O)NC(=O)[C@H](C)N)C(=O)O | LC-MS/MS | human, male, plasma | intravenous, 30 mg/kg three times daily, day 3, first dose, 10 min infusion, geometric mean | – | volume of distribution | 21 L/kg |
| CCCC1OC2CC3C4CCC5=CC(=O)C=CC5(C)C4C(O)CC3(C)C2(C(=O)COC(=O)CN(CC)CC)O1 (stereo not drawn) | – | rat plasma diluted 5.7-fold | 200 µg/mL, 37 °C, 2% DMSO | – | time to complete hydrolysis | ≤ 24 h |
| C[C@H](NC(=O)COC(=O)[C@H](C)NC(=O)CO)C(=O)O | – | water | pH 3, 37 °C | – | depolymerization half-life | 298 h |

| Structure (SMILES) | assay | system | conditions | scale | endpoint | result |
| --- | --- | --- | --- | --- | --- | --- |
| COc1ccc2cc(-c3ccc(-c4ccc(C)cn4)nc3)oc2c1 | – | aqueous HEPES buffer | pH 7.4, zinc-free ligand | – | emission maximum | 478 nm |
| Cc1ccccc1/N=N/c1ccc(/N=N/c2c(O)ccc3ccccc23)c(C)c1 | – | rat whole blood extract | 0.5 µg/L, 30 days, -20 °C, long-term storage | – | stability deviation | 0.6% |
| C[C@H](NC(=O)[C@H](Cc1cnc[nH]1)NC(=O)[C@H](CO)NC(=O)[C@@H](N)CC(=O)O)C(=O)N[C@@H](CCCCN)C(=O)N[C@@H](CCCNC(=N)N)C(=O)N[C@@H](Cc1cnc[nH]1)C(=O)N[C@@H](Cc1cnc[nH]1)C(=O)NCC(=O)N[C@@H](Cc1ccc(O)cc1)C(=O)N[C@@H](CCCCN)C(=O)N[C@@H](CCCNC(=N)N)C(=O)N[C@@H](CCCCN)C(=O)N[C@@H](Cc1ccccc1)C(=O)N[C@@H](Cc1cnc[nH]1)C(=O)N[C@@H](CCC(=O)O)C(=O)N[C@@H](CCCCN)C(=O)N[C@@H](Cc1cnc[nH]1)C(=O)N[C@@H](Cc1cnc[nH]1)C(=O)N[C@@H](CO)C(=O)N[C@@H](Cc1cnc[nH]1)C(=O)N[C@@H](CCCNC(=N)N)C(=O)NCC(=O)N[C@@H](Cc1ccc(O)cc1)C(=O)O | cationic PAGE | pooled whole saliva supernatant G3, diluted 1:10 | 100 µg/mL, 37 °C | – | time to fragment appearance | 1.5 h |
| Cn1c(=O)oc2ccc(-c3ccc(CC(C#N)NC(=O)C4CNCCCO4)c(F)c3)cc21 (stereo not drawn) | – | human | oral, 20 mg once daily, TEAE, multiple ascending dose | – | ALT increased incidence | 11.1% |
| COc1ccc(/C=C/c2ccc(-c3ccc(C)cn3)nc2)cc1 | TCSPC | acetonitrile | zinc complex | – | radiative decay rate constant | 0.15 ns⁻¹ |
| C/C(=N\OCCN(C)Cc1ccccc1)c1ccc(C(F)(F)F)cc1 | – | liver microsomes | – | relative to: human over mouse | metabolic stability ratio | ~3 fold |
| Nc1nc(-n2nnc3c2CCC2C(CO)C2CC3)nc2c1ncn2C1OC(CO)C(O)C1O (mixture of isomers) | – | methanol | – | – | brightness | 0.38 M⁻¹ cm⁻¹ |
| NCCCC(=O)OCC(=O)c1cc(F)c(O)cc1F.O=C(O)C(F)(F)F | photolysis, item: disappearance of compound | unbuffered water | – | – | quantum yield | 0.22 |
| CC(C)(O)c1ncc([S@](N)(=O)=NC(=O)Nc2c3c(cc4c2CCC4)CCC3)s1 | – | healthy human, fed | oral, 50 mg twice daily, day 1, tablet formulation, geometric mean | – | AUC(0-tau) | 27000 ng·h/mL |
| O=C([O-])CN1CCN(CC(=O)[O-])CCN(CC(=O)NCCc2ccc3c(c2)C2C=CCC2C(c2cc4c(cc2Br)OCO4)N3)CCN(CC(=O)[O-])CC1.[111In+3] (stereo not drawn) | – | mouse, Hec50 endometrial tumour, small intestine | 4 h post injection | – | tissue uptake | 1.25 ± 0.11 %ID/g |
| C=C(c1ncc(C(=O)O)cn1)c1cc2c(cc1C)C(C)(C)CCC2(C)C | – | Sprague-Dawley rat, male | oral, 100 mg/kg, 1 h, sesame oil vehicle | – | blood cholesterol | 107 ± 20.1 mg/dL |
| CCC(c1nnnn1Cc1cccs1)N1CCN(c2nc3cc(N)cc(F)c3s2)CC1 (stereo not drawn) | light scattering | DNase I buffer | 5% DMSO | – | critical aggregation concentration | 42.5 µM |
| [11CH3]c1ccc2nc(C3CCC3)n(-c3ccc4[nH]ncc4c3)c2n1 | extrapolated from mouse biodistribution | standard human | – | – | effective dose | 4.4 µSv/MBq |
| CCCC(CCC(=O)O)NC(=O)c1ccc2c(c1)OCO2 (stereo not drawn) | – | female Sprague-Dawley rats, plasma | oral, 50 mg/kg of parent drug | relative to: 50 over 20 mg/kg dose | Cmax ratio | 1.28 |
| CCOc1c(C(C)(C)O)sc2cnc(Nc3ccc(N4CCC(N5CC6(COC6)C5)CC4)cc3OC)nc12 | – | New Zealand rabbit, male, isolated Purkinje fibres | 30 µM, 45 min, pacing 0.25 Hz | – | APD50 change | -18 ± 5% |
| CCN(CC)C(=O)c1ccc(-c2cc(NCCCN3CCCCC3)c3ccccc3n2)cc1 | – | C57BL/6 mice, male, serum | oral, 0.05% w/w in chow, 5 days | – | serum concentration | > 3000 nM |
| NC[C@@H](C(=O)Nc1ccc(-c2cn[nH]c2)cc1)c1ccccc1 | OECD 405 eye irritation | New Zealand White rabbit, eye | topical, 0.1%, 25 h (day 2), scale 0 to 3 | direction not given | conjunctival redness score | 1 |
| COc1cc(NC(C)=O)c2c(c1O)-c1c(OC)c(OC)cc3c1C(C2)N(C)CC3 (stereo not drawn) | – | rat brain homogenate | 5 µg/mL, 40 d, -20 °C, long-term storage | – | remaining compound | 88.5 ± 3% |
| COC(=O)c1ccc(-c2cn(Cc3cc(Cl)ccc3O[11CH3])nn2)cc1 | PET, Logan plot, t*=40 min | rhesus monkey, brain Insula | dose not given | – | distribution volume | 0.548 mL/cm³ |
| NCCCC(=O)OCC(=O)c1ccc(O)cc1F.O=C(O)C(F)(F)F | photolysis, item: GABA appearance | aqueous HEPES buffer with LiClO4 | pH 7.3 | – | quantum yield | 0.2 |
| COCCOCCOCCOc1ccc(/C=C/C2=[N+]3C(=C(c4cc(OC)cc(OC)c4)c4c(C)c(I)c(/C=C/c5ccc(OCCOCCOCCOC)cc5)n4[B-]3(F)F)C(C)=C2I)cc1 | – | dichloromethane | – | – | emission maximum | 687 nm |

For quick reference, copied from above:
| Structure (SMILES) | assay | system | conditions | scale | endpoint | result |
| --- | --- | --- | --- | --- | --- | --- |
| O=C(Nc1ccc(N2C(=O)c3cccc([18F])c3C2=O)c(Cl)c1)c1ccccn1 | – | Sprague-Dawley rat, arterial plasma | intravenous, 0.08333 h | – | metabolized fraction | ~90% |
| Oc1cccc(-c2cccc(O)n2)n1.[Cl-].[Cl-].[Ru+2].c1cnc2c(c1)ccc1cccnc12.c1cnc2c(c1)ccc1cccnc12 | shake flask | octanol/phosphate buffer | pH 6.00 | – | logD | 1 |
| Cc1ccc(OCC(=O)O)cc1 | – | Sprague-Dawley rat Crl:CD(SD), female, plasma | oral, 30 mg/kg/day of parent drug, day 90, 90-day repeated dosing | – | Tmax | 3 h |
| CC1=CC(C)=[N+]2C1=Cc1ccc(CCC(=O)N3CCN(C(=O)c4cc(Cc5n[nH]c(=O)c6ccccc56)ccc4F)CC3)n1[B-]2(F)F | ex vivo imaging | athymic nude NU/J mice, U87 or U-251 xenograft, brain | intravenous, 2.5 mg/kg, 90 min | – | mean fluorescence | 0.13 AU/pixel |
